Measured values from different studies.
Protocols differ between the studies behind these lines. ± gives the spread as reported.
Target: Dual specificity mitogen-activated protein kinase kinase 7 (MAP2K7, Homo sapiens, UniProt O14733)
Residues used in one study (O14733 1-419): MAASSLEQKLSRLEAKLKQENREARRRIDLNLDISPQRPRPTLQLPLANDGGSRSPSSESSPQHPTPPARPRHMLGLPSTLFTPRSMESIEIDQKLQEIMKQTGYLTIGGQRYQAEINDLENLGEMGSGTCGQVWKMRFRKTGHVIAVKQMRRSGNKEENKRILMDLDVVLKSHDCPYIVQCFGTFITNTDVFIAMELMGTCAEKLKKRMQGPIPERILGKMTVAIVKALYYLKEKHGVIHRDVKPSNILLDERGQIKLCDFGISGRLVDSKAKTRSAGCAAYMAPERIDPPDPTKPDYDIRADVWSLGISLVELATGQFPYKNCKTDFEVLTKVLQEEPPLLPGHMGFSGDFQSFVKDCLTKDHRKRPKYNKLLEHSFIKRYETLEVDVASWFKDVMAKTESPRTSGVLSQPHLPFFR

| SMILES | assay | system | conditions | how to read | quantity | value |
| --- | --- | --- | --- | --- | --- | --- |
| COc1cc(Cl)c(C(=O)N[C@@H](CN[C@H]2CC[C@@H](N)CC2)Cc2ccc(C#N)cc2)cc1-c1ccc(CN[C@H](C)c2ccc(C)cc2)o1 | enzyme activity, KinaseProfiler panel |  | 1 µM |  | remaining activity | 92% |
| CC#CC(=O)N1CCC[C@H]1c1nc(-c2ccc(C(=O)Nc3ccccn3)cc2)c2c(N)nccn12 | kinase activity, inhibitor, HotSpot radiometric |  | 100 nM, together with: ATP 10 µM |  | remaining activity | 97.8 ± 1% |
| C=CC(=O)N1CCC(COCC(=O)N2CCN(c3nc(-c4cnc(N)nc4C(F)F)nc(N4CCOC[C@@H]4C)n3)CC2)CC1 | KINOMEscan |  | 1 µM | reference: DMSO control | remaining binding | 74% |
| CNCc1ccc(-c2cc(-c3nc(-c4ccc(S(=O)(=O)C(C)C)cc4)cnc3N)on2)cc1 | enzyme activity |  | 2 µM, together with: ATP at Km |  | inhibition | 0% |
| Cc1cc(Nc2cc(N3CCN(C)CC3)nc(Sc3ccc(NC(=O)C4CC4)cc3)n2)[nH]n1 | kinase activity, KinaseProfiler |  | 0.03 µM, species human | reference: control | remaining activity | 128% |
| C1=C/COCc2cc(ccc2OCCN2CCCC2)Nc2nccc(n2)-c2cccc(c2)COC/1 |  |  | concentration not given, gene name MKK7 |  | percent of control | 73% |
| Cc1cnc(NC2CCOCC2)nc1-n1cnc(C(=O)NC(CN)c2cc(F)cc(Cl)c2)c1 (stereo not shown) | radiometric |  | 1 µM |  | remaining activity | 104% |
| CC/C(=N\NC(=O)NCc1cccc(O)c1)c1ccc(O)c(C)c1O | kinase activity |  | 0.1 µM |  | inhibition | -9.1% |
| COc1ccc(F)cc1C(=O)NCc1ccc(-c2nn([C@@H](C)C(F)(F)F)c(N)c2C(N)=O)cc1 | kinase activity, inhibitor, HotSpot radiometric |  | 100 nM, together with: ATP 10 µM |  | remaining activity | 97.6 ± 2% |
| CCN(CC)c1ccc(C2=NNC(=O)CC2C)cc1[N+](=O)[O-] (stereo not shown) | enzyme activity, inhibitor |  | 10 µM | reference: vehicle | remaining activity | 102% |
| Cc1cc(NC(=O)c2cccc3cc(-c4cccc5[nH]nc(N)c45)ccc23)ccc1F | enzyme activity, kinase profiling panel |  | 0.1 µM |  | remaining activity | 115% |
| CCN1CCN(Cc2ccc(NC(=O)c3ccc(C)c(/C=C/c4cnc5[nH]ccc5c4OC)c3)cc2C(F)(F)F)CC1 |  | A-375 | 0.05 µM |  | inhibition | -21.9% |
| CC(C)c1ccc(NC(=O)c2cccs2)c(-c2nc3ccccc3[nH]c2=O)c1 | kinase activity |  | 1 µM |  | remaining activity | 82% |

Excerpt of the above:
| SMILES | assay | system | conditions | how to read | quantity | value |
| --- | --- | --- | --- | --- | --- | --- |
| CNCc1ccc(-c2cc(-c3nc(-c4ccc(S(=O)(=O)C(C)C)cc4)cnc3N)on2)cc1 | enzyme activity |  | 2 µM, together with: ATP at Km |  | inhibition | 0% |
